Measurements pooled from the literature.
Each numbered part is a random draw from the data of one study; scales do not carry over between parts. Changes are numbered by the printed parent chain.

Series 1
Target: PABPC1L2, full length, GST fusion (mouse, UniProt A0ABA7IW68)
Technique: RNAcompete
Form: RNA
Medium: in vitro
Concentration: 20 nM
Setting: 7-mer, probes averaged, single round
Baseline: mean of 7-mers
Direction: higher = stronger binding
Endpoint: 7-mer Z-score
Residues (chain): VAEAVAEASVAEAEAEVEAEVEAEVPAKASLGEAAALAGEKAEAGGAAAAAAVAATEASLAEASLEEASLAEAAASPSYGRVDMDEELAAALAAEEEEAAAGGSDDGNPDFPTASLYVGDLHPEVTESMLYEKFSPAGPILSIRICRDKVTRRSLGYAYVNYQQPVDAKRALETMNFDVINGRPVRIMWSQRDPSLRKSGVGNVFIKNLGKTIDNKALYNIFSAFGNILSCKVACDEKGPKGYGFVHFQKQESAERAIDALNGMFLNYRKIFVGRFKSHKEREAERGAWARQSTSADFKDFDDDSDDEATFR
AUAUCUA: -0.0953
AUUCUCC: -0.403
GGAGAAU: 0.104
UCUUGCC: -0.322
CGUAUUA: -0.253
UUCCACU: -0.231
UUUGUCC: -0.485
AGCACUC: -0.209
ACGGGUC: 0.0189
CUUGAAC: -0.17
GCAAAUC: -0.021
AAGGUUA: 0.0334
AUGUCAU: -0.282
AUCCCUC: -0.271
AGAGUGA: -0.224
GACGGUG: 0.0207
CGUCGAC: -0.293
GCACUGC: -0.191
GUUGUCA: -0.345
CAGUAAU: -0.0645
CGCGGGA: 0.158
AGUAAAA: 3.18
UAUUGAU: -0.273
GAUCCGA: -0.208

Series 2
Target: Ras GTPase-activating protein-binding protein 1, full length (G3BP1, Homo sapiens, UniProt Q13283)
UniProt Q13283, sequence (whole entry, looked up): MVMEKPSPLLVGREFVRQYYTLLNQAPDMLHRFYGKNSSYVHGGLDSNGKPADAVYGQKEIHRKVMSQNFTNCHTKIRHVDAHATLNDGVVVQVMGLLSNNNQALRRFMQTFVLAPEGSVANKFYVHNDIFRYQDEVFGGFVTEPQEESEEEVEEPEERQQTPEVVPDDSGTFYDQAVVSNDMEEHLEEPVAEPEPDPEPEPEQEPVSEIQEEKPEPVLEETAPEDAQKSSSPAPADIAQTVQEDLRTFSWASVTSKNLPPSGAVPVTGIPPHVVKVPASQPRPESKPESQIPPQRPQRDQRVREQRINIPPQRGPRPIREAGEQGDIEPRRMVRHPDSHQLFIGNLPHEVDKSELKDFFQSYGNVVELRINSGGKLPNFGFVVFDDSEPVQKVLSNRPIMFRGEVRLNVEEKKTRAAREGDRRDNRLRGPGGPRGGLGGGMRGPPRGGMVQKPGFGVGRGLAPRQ
Technique: RNA Bind-n-Seq
Form: RNA
Medium: in vitro
Concentration: 200 nM
Setting: whole 134-nt RNA, ends assumed
Added: 150 mM KCl
Baseline: input library
Direction: higher = stronger binding
Endpoint: log2 enrichment
Shared flanks, not repeated: GGGAGUUCUACAGUCCGACGAUC … UGGAAUUCUCGGGUGUCAAGG
GGUGCGGCUCUAUGAGUGGACAACAGAGAAGGAGCUGCGCACUGAGUGCAACCACUACAACAACAUCAUGGCCCUCUACCUGAAGACCAA: 0.112
UAACUUUAGAGGAGGAUCUGAUGGAUAUGGCAGUGGACGUGGAUUUGGGGAUCGCUAUAAUGGGUAUGGAGGAGGACCUGGAGGUGGCAA: 0.179
AGUCCUGUGCUACACAUCGUAUGUACCGAAUCAAAUUUAAACCCCCCCAAAUUUAAAAAAGUAUUAUGUUACGCCGUUCGGAUCUGCACU: -0.203
AGGUCAUGGAUCAAAAAGAACAUAAAUUGAAUGGGAAGGUGAUUGAUCCUAAAAGGGCCAAAGCCAUGAAAACAAAAGAGCCGGUUAAAA: -1.32
UGAGAAACUUGCUCAAAUAUUGGCAGCUAGACAGUUAGAAAUUAAACAGAUUCCAUCUGAUGGCCACUGUAUGUAUAAAGCCAUUGAAGA: -1.09
AAGUCCUGUGCUACACAUCGUAUGUACCGAAUCGGUUUUGGGGUUUUGGGGUUUUGGAAAGUAUUAUGUUACGCCGUUCGGAUCUGCACU: -0.701
UCAAGUCCUGUGCUACACAUCGUAUGUACCGAAUCGGUGGUUUGGUUUUUUUGGAAAGUAUUAUGUUACGCCGUUCGGAUCUGCACUUCC: -0.784
UUGGACUAUGGAUCAGGUACUGUGCUCAGCAUCAGAAAAUGGGAUGACAAUGAACAGAGUAACAGGACUAUAUUUCUGAAAAAGGAUGAA: -0.349
GUCCUGUGCUACACAUCGUAUGUACCGAAUCGGGUUUUUUUGGGAAAGGGUUUUUGGGAAAGUAUUAUGUUACGCCGUUCGGAUCUGCAC: -0.546
CUCAAGUCCUGUGCUACACAUCGUAUGUACCGAAUCGGGGUGGGGUGGGGUGGGAAAGUAUUAUGUUACGCCGUUCGGAUCUGCACUUCC: 0.86
UUGGCUACAAUGCAGAGACACAGAAACUACUAUGCAAGAAUGGGGAAACGCUGCUAGGAGCCGUGAACUUCUUUGUCUCUAGCAUCAACA: -1.02
AAGUCCUGUGCUACACAUCGUAUGUACCGAAUCGGAAAAAAAGGAAAGGUUUUUGGAAAGUAUUAUGUUACGCCGUUCGGAUCUGCACUU: -1.62
GUCCUGUGCUACACAUCGUAUGUACCGAAUCGGGUGGGAAAAAAAGGGUUUUUUUGGGAAAGUAUUAUGUUACGCCGUUCGGAUCUGCAC: -0.424
UGGCCCUGGUGGCAUGCGGGGAGGAAGAGGUGGCCUCAUGGAUCGUGGUGGUCCCGGUCGAAUGUUCAGAGGUGGCCGUGGUGGAGACAG: -0.288

Series 3
Target: CCNB3, cyclin fold, Cln2 fusion (human)
Technique: yeast growth competition, sequencing
Medium: yeast
Setting: weak parent motif
Baseline: not given
Direction: higher = stronger binding
Endpoint: normalised enrichment score
Parent: MASTL docking peptide (human); PMIAKNLMCELDE
PMIAKNLMEELDE [C9E]: -0.45
PMIAKNLGCELDE [M8G]: -0.172
PMIAKNYMCELDE [L7Y]: 0.199
PFIAKNLMCELDE [M2F]: 0.0896
PMIAKELMCELDE [N6E]: 0.00507
PMIAKNLMCEDDE [L11D]: -0.114
PMIAKALMCELDE [N6A]: -0.226
PMILKNLMCELDE [A4L]: 0.511
PMIAKNAMCELDE [L7A]: -0.0721
PMIAKNLMCEIDE [L11I]: 0.181
PMIAKHLMCELDE [N6H]: 0.0232
PMIAKNLMCVLDE [E10V]: 0.0993
PMIAKNLMCEPDE [L11P]: 0.00275
PMIAKNLVCELDE [M8V]: 0.0492
PMIALNLMCELDE [K5L]: 0.165
PMIADNLMCELDE [K5D]: -0.11
PMIFKNLMCELDE [A4F]: 0.183
PMCAKNLMCELDE [I3C]: -0.0237
PWIAKNLMCELDE [M2W]: -0.193
PMIKKNLMCELDE [A4K]: 0.241
PGIAKNLMCELDE [M2G]: 0.00762
PCIAKNLMCELDE [M2C]: -0.234
PMIAKNTMCELDE [L7T]: -0.282
PMIAKNLMDELDE [C9D]: -0.295
PMIAKNLMCQLDE [E10Q]: 0.322

Series 4
Target: CREB3L1, bZIP domain (human)
Technique: DHFR protein complementation
Medium: yeast
Setting: single substitutions, most at no-binding floor
Baseline: wild-type JUN-FOS pair
Direction: higher = stronger binding
Endpoint: binding fitness
Parent: JUN, bZIP domain (human); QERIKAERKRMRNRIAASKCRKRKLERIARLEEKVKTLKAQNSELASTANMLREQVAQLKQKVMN; partner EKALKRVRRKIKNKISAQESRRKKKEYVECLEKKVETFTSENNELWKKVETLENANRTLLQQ
I28A: -1.39 natural log
K34C: -1.38 natural log
E32R: -1.47 natural log
Q55H: -1.34 natural log
N42G: -1.46 natural log
R30L: -1.38 natural log
L52N: -1.51 natural log
T37G: -1.41 natural log
L52F: -1.49 natural log
V35L: -1.32 natural log
V56D: -1.63 natural log
A40R: -1.3 natural log
L52H: -1.46 natural log
L59G: -1.48 natural log
I28D: -1.52 natural log
T37N: -1.55 natural log
T48C: -1.37 natural log
S47Q: -1.22 natural log

Series 5
Target: Prothrombin, mature alpha-thrombin (F2, Homo sapiens, UniProt P00734)
Technique: aptamer microarray, sandwich
Form: DNA with 2'F-ANA
Medium: in vitro
Concentration: 200 nM
Setting: whole 15-mer aptamer, many near background
Added: Cy3 exosite-II aptamer, 400 nM
Direction: higher = stronger binding
Endpoint: mean fluorescence intensity
Strand: GGTTGGTGTGGTTGG
2'F-ANA at 3 4 5 6 7 8 9 11 12 13: 111 a.u.
2'F-ANA at 1 2 3 4 9 10 12 13 14: 53.3 a.u.
2'F-ANA at 2 4 13 15: 264 a.u.
2'F-ANA at 2 3 5 10 11 12 14 15: 52.1 a.u.
2'F-ANA at 1 2 4 5 6 9 11 12 13 14: 45.2 a.u.
2'F-ANA at 1 5 6 7 9 10 11 13 14 15: 47 a.u.
2'F-ANA at 1 3 4 5 7 11 12 13 14 15: 48 a.u.
2'F-ANA at 1 3 4 6 9 10 15: 62.5 a.u.
2'F-ANA at 1 3 4 6 7 9 12 14: 70.6 a.u.
2'F-ANA at 1 2 7 9 11 13 14: 52.4 a.u.
2'F-ANA at 3 6 8 10 12 13 14 15: 381 a.u.
2'F-ANA at 2 5 8 9 10 11 13 14 15: 54.7 a.u.
2'F-ANA at 1 4 5 6 7 8 9 10 12 13 14: 65.1 a.u.
2'F-ANA at 5 8 10 11 13 15: 52.4 a.u.
2'F-ANA at 1 2 6 7 8 9 13 14: 109 a.u.
2'F-ANA at 3 7 8 9 10 11 12 14 15: 375 a.u.
2'F-ANA at 1 3 5 8 9 10 14: 47.9 a.u.

Series 6
Target: ABI1, truncated, D143A, DHFR fusion (Arabidopsis thaliana)
Technique: DHFR PCA, deep sequencing
Medium: yeast
Setting: methotrexate growth selection, single substitutions
Added: (+)-ABA 0 µM
Baseline: wild-type fitted maximum
Direction: higher = stronger binding
Endpoint: relative binding score
Parent: PYL1, truncated, DHFR fusion (Arabidopsis thaliana); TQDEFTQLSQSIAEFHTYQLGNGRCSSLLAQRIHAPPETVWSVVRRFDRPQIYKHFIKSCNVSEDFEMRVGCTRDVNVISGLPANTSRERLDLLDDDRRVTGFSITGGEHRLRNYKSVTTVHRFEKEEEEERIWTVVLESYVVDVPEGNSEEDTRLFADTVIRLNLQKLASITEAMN
R32F: 16.4%
G81R: 0.451%
D48W: -7.29%
R49S: 12.2%
A158D: 3.34%
D159R: -10.3%
F66P: 1.29%
S117F: -0.872%
V44K: -0.365%
E67C: 15.3%
R88C: 11.1%
Y141S: 0.111%
A13M: 13%
L94C: -0.84%
E64D: 37.6%
L93G: -4.19%
K126G: 47.7%
L164Q: 4.38%
N22W: 3.33%
D159A: -6.11%
C60G: 3.9%
L28H: -8.28%
Y141R: -5.93%
I172T: 4.03%
V137R: 2.01%

A few entries again (series 1):
AGUAAAA: 3.18
GUUGUCA: -0.345
CGUAUUA: -0.253
AUAUCUA: -0.0953
GCACUGC: -0.191
GGAGAAU: 0.104
AUUCUCC: -0.403
